Experimental data from different studies.
Numbered parts are unrelated; each lists some results of a single study. Substitutions count along the parent as printed.

Block 1 — technique: protein binding microarray; molecule type: double-stranded DNA, one strand shown; medium: in vitro; tested at: not given; relative to: not given; reading: higher = stronger binding; endpoint: E-score
Target: Histone acetyltransferase KAT6A, winged helix 1, GST fusion (KAT6A, Homo sapiens, UniProt Q92794, residues 1-85)
Notes: 8-mer, flanks averaged, mean of 2 arrays, mostly near background
Construct (chain): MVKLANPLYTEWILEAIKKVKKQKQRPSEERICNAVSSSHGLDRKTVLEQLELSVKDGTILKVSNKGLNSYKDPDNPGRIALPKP
TAGCAAAA: 0.0221
AACAATTC: -0.0905
ATGACCAA: -0.0925
GGCGTGAA: 0.0968
GTCAGTAA: -0.0365
CCGGCCGA: 0.4
CAAAGGAC: -0.0544
AGATGTGG: -0.282
AACGGCGT: 0.332
CGCGCATA: 0.383
ACTGCGTA: 0.159
ACTTTGAG: -0.281
CGATCAAC: -0.0733
CGTCTCAG: -0.00522
ACCCCTAA: -0.148

Block 2 — technique: DHFR PCA, deep sequencing; medium: yeast; together with: (+)-ABA 2500 µM; relative to: wild-type fitted maximum; reading: higher = stronger binding; endpoint: relative binding score
Target: ABI1, truncated, D143A, DHFR fusion (Arabidopsis thaliana)
Notes: methotrexate growth selection, single substitutions
Starting sequence: PYL1, truncated, DHFR fusion (Arabidopsis thaliana); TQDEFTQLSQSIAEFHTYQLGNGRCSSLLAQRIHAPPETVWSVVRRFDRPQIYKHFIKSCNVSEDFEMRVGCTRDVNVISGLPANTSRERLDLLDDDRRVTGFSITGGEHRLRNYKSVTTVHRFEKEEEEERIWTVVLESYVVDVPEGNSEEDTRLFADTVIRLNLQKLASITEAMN
E89M: 6.44%
E14L: 91.8%
E152D: 99.6%
V142D: 87.3%
P36G: 95.6%
L82P: 90.1%
D3S: 92.2%
A13W: 88.4%
I57N: 53.6%
T120Y: 43%
F5T: 105%
R45E: 50.9%
S42M: 104%
V118I: 98.8%
N114M: 80.7%

Block 3 — technique: RNA Bind-n-Seq; molecule type: RNA; medium: in vitro; tested at: not given; relative to: input RNA pool; reading: higher = stronger binding; endpoint: bound/input enrichment
Target: RING finger protein unkempt homolog, zinc fingers 1-6, GST-SBP tag (UNK, Homo sapiens, UniProt Q9C0B0, residues 30-357)
Chain of UniProt Q9C0B0 (30-357, looked up): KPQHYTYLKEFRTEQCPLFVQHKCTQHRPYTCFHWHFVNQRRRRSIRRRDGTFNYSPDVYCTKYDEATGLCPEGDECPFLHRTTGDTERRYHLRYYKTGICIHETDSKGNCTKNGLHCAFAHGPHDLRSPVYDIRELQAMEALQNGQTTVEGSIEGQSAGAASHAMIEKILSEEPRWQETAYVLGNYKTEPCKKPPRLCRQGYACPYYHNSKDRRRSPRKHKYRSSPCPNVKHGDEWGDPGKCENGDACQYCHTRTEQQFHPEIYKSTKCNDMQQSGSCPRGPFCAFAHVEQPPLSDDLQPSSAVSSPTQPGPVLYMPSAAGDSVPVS
Notes: RNA with constant flanks, human and mouse sites, ends assumed
All sequences stand within: GGGAGUUCUACAGUCCGACGAUC … CAACAGAGGAUUGAGCAUCA
AUGGGUGGAUUAUUUUCUCGAUGGAGGACAAAACCUUCAACUGUAGAAGUUCUAGAAAGUAUAGAUAAGGAAAUUCAAGCAUUGGAAGAAUUUAGGGAAAAAAAUCAGAGAUUACAAAAA: 10.2 ratio
AACAGUUUGUAAGAUGUGAAGGGUAAAGUUGAGUGUUGUAUGCUUAUGAGUAGUGGAAAACUGGACAUCUGAGACAGGCAAGGCAGUGUCCAUACAAGACUGAAGUCUGAAGCAGCCUAG: 0.479 ratio
AGGACCCCCGGGAGCCGGGCUCGGAGCAGACGAGGUAUCCGGCGGCGCCCAUUUGGGGGCUUCUAACUCUUUCUCCACGCAGCCCCUCUUCUGUCCCCUCCCCUCUCGCUCCCUUUUAAA: 0.309 ratio
CUGAAAUAAAUCAGCUUUAAACCUGCUUUUUAAAAAUAUCUGGGUUGGAAUUUGCCCCUGACAAAUAAUAAAAUGAUGAGUGAUGCAAGUGACAUGUUGGCUGCAGCGUUGGAGCAGAUG: 0.767 ratio
AGAAAGUGAGCCUGUUGAUGUCUAGCUAACCCAUUGGUGGAGUCUGCAUUGAAUCUGUAAGAAUAUUGUUCUGGAUCAUGCAGGUGGGAUUUGUAUAAAAAGCCUGUCCAACAUUUAGUU: 0.423 ratio
AAUGCCUCAGUAGUGGGAACGGCAGGGCUUAAAGAGCCGAUGCCAGCCCAGGUGUUUCUGGCUGUGCUCUAGUGACGGAAAUGUAAGUACUUUAAUUGUGAGAACGGAGAGUUGAUUAAA: 0.312 ratio
UUUGUACCAGUUAUCAAACUCUGUUUUGAUGGAAUAGAGAUUGAUAUUUUGUUUGCAAGAUUAGCACUGCAGACUAUUCCAGAAGAUUUGGACCUACGAGAUGACAGUCUGCUUAAAAAC: 0.181 ratio
CGGGAUGACCAGACUCCCGGACUCCUCAGGCAGUGCCCUUUCCUCCCACUUUUCCUCCCCCAUAGCCACAGGCCUCUGCUCCUGCUCCUGCCUGCAUGUUCUCUCUGUUGUUGGAGCCUG: 0.981 ratio

Single results of other studies
PhoQ, residues 284 288 289 292 302 303 TNASYF
fold induction (PhoP, residues 12 14 15 18 19 VHSCL (Escherichia coli, UniProt P23836); Sort-seq, item: YFP reporter; E. coli; PhoQ-PhoP variant library, together with: 10 µM Mg2+; relative to: high Mg2+ state, higher = stronger signaling): 10.1

For quick reference, copied from above (block 2):
E152D: 99.6%
V142D: 87.3%
P36G: 95.6%
L82P: 90.1%
D3S: 92.2%
A13W: 88.4%
